Published values from different studies.
Lines come from different studies, so protocols differ. ± marks the error that the study gave.
Proteasome subunit beta type-9: Proteasome subunit beta type-9 (Homo sapiens, UniProt P28065)
Sequence of UniProt P28065 (whole entry, looked up): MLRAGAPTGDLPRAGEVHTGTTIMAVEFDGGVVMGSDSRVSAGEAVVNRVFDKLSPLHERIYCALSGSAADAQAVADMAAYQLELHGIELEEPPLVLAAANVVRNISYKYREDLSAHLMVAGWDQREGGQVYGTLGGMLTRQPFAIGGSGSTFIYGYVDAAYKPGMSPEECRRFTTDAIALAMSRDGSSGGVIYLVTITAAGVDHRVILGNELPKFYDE
Probable G-protein coupled receptor 34: Probable G-protein coupled receptor 34 (Homo sapiens, UniProt Q9UPC5)
Sequence of UniProt Q9UPC5 (whole entry, looked up): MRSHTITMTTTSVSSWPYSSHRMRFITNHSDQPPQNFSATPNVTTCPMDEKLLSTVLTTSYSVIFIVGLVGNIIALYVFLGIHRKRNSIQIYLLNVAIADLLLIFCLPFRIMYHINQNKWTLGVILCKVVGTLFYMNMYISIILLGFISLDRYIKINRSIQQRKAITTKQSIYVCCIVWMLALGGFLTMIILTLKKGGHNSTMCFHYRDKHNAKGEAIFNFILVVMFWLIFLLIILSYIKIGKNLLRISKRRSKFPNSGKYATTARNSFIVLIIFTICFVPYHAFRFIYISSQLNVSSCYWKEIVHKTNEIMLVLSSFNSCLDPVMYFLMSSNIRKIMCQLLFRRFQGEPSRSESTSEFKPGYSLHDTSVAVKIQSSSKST
P2RX4: P2X purinoceptor 4 (P2RX4, Homo sapiens, UniProt Q99571)
Sequence of UniProt Q99571 (whole entry, looked up): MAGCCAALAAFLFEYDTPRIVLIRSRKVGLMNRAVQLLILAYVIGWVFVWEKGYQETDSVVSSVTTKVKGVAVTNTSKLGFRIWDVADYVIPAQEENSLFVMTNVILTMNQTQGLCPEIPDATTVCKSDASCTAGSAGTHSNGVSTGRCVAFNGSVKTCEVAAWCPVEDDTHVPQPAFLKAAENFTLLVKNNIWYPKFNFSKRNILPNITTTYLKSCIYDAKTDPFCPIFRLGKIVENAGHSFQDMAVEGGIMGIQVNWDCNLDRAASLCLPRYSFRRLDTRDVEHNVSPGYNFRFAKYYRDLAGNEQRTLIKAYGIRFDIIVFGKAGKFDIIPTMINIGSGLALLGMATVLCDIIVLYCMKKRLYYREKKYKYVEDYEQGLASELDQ
SRC: Proto-oncogene tyrosine-protein kinase Src (SRC, Homo sapiens, UniProt P12931)
Sequence of UniProt Q9NPD5 (whole entry, unmodified, looked up): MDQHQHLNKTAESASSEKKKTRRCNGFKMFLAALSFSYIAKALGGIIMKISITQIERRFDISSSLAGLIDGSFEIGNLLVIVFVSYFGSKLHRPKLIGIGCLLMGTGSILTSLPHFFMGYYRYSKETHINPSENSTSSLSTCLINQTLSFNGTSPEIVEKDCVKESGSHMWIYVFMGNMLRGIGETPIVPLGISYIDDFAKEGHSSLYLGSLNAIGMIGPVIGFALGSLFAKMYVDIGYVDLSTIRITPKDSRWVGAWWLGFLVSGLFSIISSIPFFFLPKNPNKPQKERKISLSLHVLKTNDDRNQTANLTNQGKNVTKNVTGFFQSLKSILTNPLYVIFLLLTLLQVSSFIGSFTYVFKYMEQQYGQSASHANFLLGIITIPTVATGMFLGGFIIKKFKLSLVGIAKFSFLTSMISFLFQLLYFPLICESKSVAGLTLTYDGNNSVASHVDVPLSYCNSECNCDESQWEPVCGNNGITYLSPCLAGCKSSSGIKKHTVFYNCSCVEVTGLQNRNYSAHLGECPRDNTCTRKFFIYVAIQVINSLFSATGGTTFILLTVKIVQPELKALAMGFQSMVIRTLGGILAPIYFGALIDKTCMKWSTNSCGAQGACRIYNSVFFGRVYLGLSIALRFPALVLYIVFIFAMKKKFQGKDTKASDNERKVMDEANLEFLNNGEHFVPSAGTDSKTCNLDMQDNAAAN
Sequence of UniProt Q8TDW0 (whole entry, looked up): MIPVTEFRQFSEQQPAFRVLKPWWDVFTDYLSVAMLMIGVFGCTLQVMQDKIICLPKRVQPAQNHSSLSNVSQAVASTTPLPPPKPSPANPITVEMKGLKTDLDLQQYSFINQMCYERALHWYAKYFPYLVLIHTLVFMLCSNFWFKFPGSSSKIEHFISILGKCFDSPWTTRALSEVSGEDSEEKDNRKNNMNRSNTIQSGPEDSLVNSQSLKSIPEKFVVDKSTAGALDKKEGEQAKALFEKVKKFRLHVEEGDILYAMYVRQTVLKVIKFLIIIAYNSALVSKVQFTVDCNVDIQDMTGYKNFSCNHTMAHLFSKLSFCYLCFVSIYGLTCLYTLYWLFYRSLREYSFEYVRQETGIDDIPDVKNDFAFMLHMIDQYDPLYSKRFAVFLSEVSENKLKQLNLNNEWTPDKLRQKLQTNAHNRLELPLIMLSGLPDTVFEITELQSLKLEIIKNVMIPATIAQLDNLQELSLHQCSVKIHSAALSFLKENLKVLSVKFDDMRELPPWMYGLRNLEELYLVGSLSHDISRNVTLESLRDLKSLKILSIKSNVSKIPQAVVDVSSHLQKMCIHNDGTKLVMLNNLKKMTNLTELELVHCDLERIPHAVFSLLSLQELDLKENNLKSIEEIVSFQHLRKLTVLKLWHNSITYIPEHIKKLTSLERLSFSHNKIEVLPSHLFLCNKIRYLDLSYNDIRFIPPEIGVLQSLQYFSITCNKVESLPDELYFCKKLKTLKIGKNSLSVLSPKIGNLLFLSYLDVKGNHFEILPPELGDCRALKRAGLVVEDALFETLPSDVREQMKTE
Sequence of UniProt Q8C6L5 (whole entry, looked up): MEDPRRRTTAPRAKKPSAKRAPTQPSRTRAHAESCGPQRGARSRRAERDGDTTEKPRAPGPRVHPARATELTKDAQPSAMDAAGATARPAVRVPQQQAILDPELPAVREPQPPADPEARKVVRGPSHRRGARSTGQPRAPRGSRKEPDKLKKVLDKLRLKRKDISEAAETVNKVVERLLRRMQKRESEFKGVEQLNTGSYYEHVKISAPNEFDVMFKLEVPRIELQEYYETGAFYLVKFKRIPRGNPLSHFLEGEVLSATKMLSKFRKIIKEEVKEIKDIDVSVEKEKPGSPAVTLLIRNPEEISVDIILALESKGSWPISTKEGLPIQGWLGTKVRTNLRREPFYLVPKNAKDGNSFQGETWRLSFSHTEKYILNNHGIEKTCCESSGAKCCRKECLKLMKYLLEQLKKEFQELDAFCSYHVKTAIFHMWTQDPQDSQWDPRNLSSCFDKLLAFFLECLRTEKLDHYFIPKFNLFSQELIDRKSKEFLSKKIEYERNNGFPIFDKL
Sequence of UniProt Q9NSA0 (whole entry, looked up): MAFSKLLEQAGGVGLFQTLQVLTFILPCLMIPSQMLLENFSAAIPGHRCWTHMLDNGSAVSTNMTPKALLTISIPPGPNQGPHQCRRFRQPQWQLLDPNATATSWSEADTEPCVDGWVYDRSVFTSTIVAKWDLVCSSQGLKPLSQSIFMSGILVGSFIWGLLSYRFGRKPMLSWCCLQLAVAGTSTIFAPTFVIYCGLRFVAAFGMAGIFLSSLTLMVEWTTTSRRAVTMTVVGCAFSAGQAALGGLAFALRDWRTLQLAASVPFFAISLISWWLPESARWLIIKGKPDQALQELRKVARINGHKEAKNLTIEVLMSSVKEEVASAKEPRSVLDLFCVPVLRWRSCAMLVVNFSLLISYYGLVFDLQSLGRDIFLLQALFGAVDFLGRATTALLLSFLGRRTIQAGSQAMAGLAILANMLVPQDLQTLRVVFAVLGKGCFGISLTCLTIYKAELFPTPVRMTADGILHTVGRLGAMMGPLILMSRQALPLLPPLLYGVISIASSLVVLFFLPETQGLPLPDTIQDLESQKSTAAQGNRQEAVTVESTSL
Sequence of UniProt Q9UM07 (whole entry, looked up): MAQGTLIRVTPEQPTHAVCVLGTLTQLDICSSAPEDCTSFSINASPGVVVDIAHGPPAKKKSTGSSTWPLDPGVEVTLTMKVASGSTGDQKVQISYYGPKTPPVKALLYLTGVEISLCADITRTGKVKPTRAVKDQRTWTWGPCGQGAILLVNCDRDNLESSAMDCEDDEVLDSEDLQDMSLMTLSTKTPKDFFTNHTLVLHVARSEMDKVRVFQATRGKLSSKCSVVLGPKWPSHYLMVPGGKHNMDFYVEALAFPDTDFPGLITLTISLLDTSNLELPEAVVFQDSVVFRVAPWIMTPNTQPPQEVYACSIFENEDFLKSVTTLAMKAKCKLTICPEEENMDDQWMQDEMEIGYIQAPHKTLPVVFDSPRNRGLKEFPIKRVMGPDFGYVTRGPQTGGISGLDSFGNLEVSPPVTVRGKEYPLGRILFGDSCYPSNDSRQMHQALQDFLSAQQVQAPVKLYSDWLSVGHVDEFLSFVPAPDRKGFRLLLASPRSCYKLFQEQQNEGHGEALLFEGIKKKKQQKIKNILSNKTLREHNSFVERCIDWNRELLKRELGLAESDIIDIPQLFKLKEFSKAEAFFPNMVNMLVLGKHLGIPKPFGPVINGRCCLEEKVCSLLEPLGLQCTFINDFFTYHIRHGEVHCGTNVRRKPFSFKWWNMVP
Sequence of UniProt P00441 (whole entry, looked up): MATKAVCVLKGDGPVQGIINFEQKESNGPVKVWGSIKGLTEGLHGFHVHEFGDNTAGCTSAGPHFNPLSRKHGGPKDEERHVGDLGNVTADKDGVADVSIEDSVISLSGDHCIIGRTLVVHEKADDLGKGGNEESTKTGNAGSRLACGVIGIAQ

SMILES = CC(C)C[C@H](NC(=O)[C@H](CC(C)C)NC(=O)[C@H](Cc1ccccc1)NC(=O)CN=[N+]=[N-])C(=O)N[C@H](/C=C/S(C)(=O)=O)Cc1ccc(CN)cc1; target = Proteasome subunit beta type-9; assay = competitive ABPP; system = Raji cell lysate; IC50 = > 10 µM
SMILES = Nc1nc(=O)n([C@H]2C[C@H](O)[C@@H](CO)O2)cc1CSCCCC[C@H](N)C(=O)O; target = DNMT1 (Homo sapiens, UniProt P26358); conditions = truncated enzyme, added: 26 bp hemimethylated DNA, SAM 1 µM; IC50 = > 100 µM
SMILES = Cc1ncc(C(=O)N[C@@H](CCC2CCCCC2)C(=O)N[C@@H](CC(C)C)C(=O)N[C@H](/C=C/S(C)(=O)=O)Cc2ccc(CN)cc2)s1; target = Proteasome subunit beta type-9; assay = competitive ABPP; system = Raji cell lysate; IC50 = > 10 µM
SMILES = CCn1c(-c2nc3ccc(C(=O)N4CCCC(N)C4)cc3n2C)cc2ccccc21 (stereo not shown); target = CACNA1C (Homo sapiens, UniProt Q13936); assay = antagonist, intracellular Ca2+ fluorescence; system = human cells; IC50 = > 15.8 µM
SMILES = C=CC(=O)Nc1cc(Nc2nccc(-c3cn(C)c4ccccc34)n2)c(OC)cc1N(C)CCN(C)C; target = SLCO1B3 (Homo sapiens, UniProt Q9NPD5); assay = transport; IC50 = 52.5 µM
SMILES = Cc1cnc(NC(=O)C2=C(O)c3ccccc3S(=O)(=O)N2C)s1; target = SLC22A11 (Homo sapiens, UniProt Q9NSA0); assay = transport, inhibitor; system = CHO expressing hOAT4; conditions = 5 min, added: [3H]estrone sulfate 14 nM; IC50 = 158 ± 4.1 µM
SMILES = CCCCCCCCCSC(C)C(N)=O (stereo not shown); target = Epoxide hydrolase 1 (Ephx1, Rattus norvegicus, UniProt P07687); assay = enzyme activity, inhibitor; IC50 = 6.5 ± 0.8 µM
SMILES = COc1ccc2c(c1)CN(C(=O)CCN1CCC(Cc3ccccc3)CC1)CC[S@@+]2[O-]; target = Kir3.1/Kir3.4 (Homo sapiens, UniProt P48544+P48549); assay = GIRK current, inhibitor, whole-cell patch clamp; system = stable cell line; IC50 = 17.5 µM
SMILES = Cc1nn(-c2nc3ccc(Cl)c(Cl)c3[nH]2)c(O)c1C1OC(=O)c2ccccc21 (stereo not shown); target = Cgas (Mus musculus, UniProt Q8C6L5); assay = enzyme activity, inhibitor, pyrophosphatase-coupled; conditions = mouse cGAS; IC50 = 0.391 µM
SMILES = CN(Cc1cnc2nc(N)nc(N)c2n1)c1ccc(C(=O)N[C@@H](CCC(=O)O)C(=O)O)cc1; target = SLCO1B3 (Homo sapiens, UniProt Q9NPD5, M233I/S112A); assay = estradiol glucuronide uptake, inhibitor; system = SLCO1B3-expressing cells; conditions = 2 min, added: 1 µM [3H]estradiol glucuronide; IC50 = > 100 µM
SMILES = Cc1ncc(C(=O)N[C@@H](CC(C)C)C(=O)N[C@@H](CC2CCCC3CCCCC32)C(=O)N[C@H](/C=C/S(C)(=O)=O)Cc2ccc(CN)cc2)s1 (stereo partly shown); target = Proteasome subunit beta type-9; assay = competitive ABPP; system = Raji cell lysate; IC50 = > 10 µM
SMILES = CCN(CC)C(=S)S; target = Superoxide dismutase [Cu-Zn], fully metallated (SOD1, Homo sapiens, UniProt P00441); assay = enzyme activity, inhibitor, XTT; IC50 = 5.6 ± 0.5 µM
SMILES = Cc1c(CN(C)C(=O)c2cc3nc(-c4ccc(Cl)cc4)cc(C(F)(F)F)n3n2)cnn1C; target = Probable G-protein coupled receptor 34; assay = antagonist, Tango; conditions = added: LysoPS 5 µM; IC50 = > 10 µM
SMILES = Cc1ccccc1S(=O)(=O)N1CCNCC1COc1ccc2ccccc2c1 (stereo not shown); target = P2RX4; assay = calcium flux, inhibitor, Ca2+ flux; system = human cells; IC50 = 4.67 ± 0.23 µM
SMILES = CC(C)C[C@H](NC(=O)CN1CCOCC1)C(=O)N[C@@H](CC(C)C)C(=O)N[C@H](/C=C/S(C)(=O)=O)Cc1ccc(CN)cc1; target = Proteasome subunit beta type-9; assay = competitive ABPP; system = Raji cell lysate; IC50 = > 10 µM
SMILES = N#Cc1cnc(NC(=O)Nc2cc(Br)ccc2N2CCCCC2)cn1; target = CHEK1 (Homo sapiens, UniProt O14757); assay = kinase activity; conditions = pH 7.4; IC50 = 0.0115 µM
SMILES = Cc1nc(Nc2ncc(C(=O)Nc3c(C)cccc3Cl)s2)cc(N2CC[C@H](O)C2)n1; target = SRC; assay = enzyme activity, inhibitor; IC50 = 7e-05 µM
SMILES = O=S(=O)(Cc1ccc(F)cc1)N1CCNCC1COc1ccc2ccccc2c1 (stereo not shown); target = P2RX4; assay = calcium flux, inhibitor, Ca2+ flux; system = human cells; IC50 = 3.31 ± 0.23 µM
SMILES = CC(C)NC(=O)COc1cccc(-c2nc(Nc3ccc4[nH]ncc4c3)c3ccccc3n2)c1; target = UGT1A6 (Homo sapiens, UniProt P19224); assay = enzyme activity, inhibitor; system = recombinant microsomes; conditions = added: diclofenac; IC50 = > 10 µM
SMILES = CSc1ccccc1C(=O)NCCn1cc(C(=O)NCc2cccc(C)n2)c(=O)c2cc3c(cc21)OCO3; target = Cytochrome P450 2C9 (CYP2C9, Homo sapiens, UniProt P11712); assay = enzyme activity, inhibitor; system = human liver microsomes; conditions = 20 min, 30 min NADPH preincubation, added: diclofenac 5 µM; IC50 = > 100 µM
SMILES = CC#CC(=O)N1CCC[C@H]1c1nc(-c2ccc(C(=O)Nc3ccccn3)cc2)c2c(N)nccn12; target = SRC; IC50 = > 5 µM
SMILES = O=C(Nc1ccc(F)cc1)N1CCNCC1COc1ccc2c(c1)OCO2 (stereo not shown); target = P2RX4; assay = calcium flux, inhibitor, Ca2+ flux; system = human cells; IC50 = 1.2 ± 0.08 µM
SMILES = C=CC(=O)Nc1cccc(Sc2nc(Nc3ccc(N4CCN(C)CC4)cc3)ncc2Cl)c1; target = Probable G-protein coupled receptor 34; assay = antagonist, Tango; conditions = added: LysoPS 5 µM; IC50 = 5.58 ± 2.17 µM
SMILES = COc1cc2nccc(Oc3ccc(NC(=O)c4cc5c(n(-c6ccccc6)c4=O)CCCC5=O)nc3)c2cc1OC; target = SRC; assay = cell viability, CellTiter-Glo; system = Ba/F3 expressing recombinant kinase; conditions = 48 h; IC50 = > 0.1 µM
SMILES = Cc1cnc(-c2ccc(-c3ccc(NC(=O)Nc4c(F)cc(F)cc4F)cc3F)c3c2C(=O)NC3)[nH]1; target = SRC; assay = enzyme activity, inhibitor, mobility shift; conditions = added: ATP 1 mM; IC50 = 0.258 µM
SMILES = Cc1cc(Nc2ccc(S(F)(F)(F)(F)F)cc2)n2nc(C(F)(F)F)nc2n1; target = Dihydroorotate dehydrogenase (quinone) (pyrD, Acinetobacter baumannii, UniProt B7GZW7); assay = enzyme activity, inhibitor, DCIP steady-state rate; IC50 = 0.48 ± 0.32 µM
SMILES = CCC(=O)Nc1cccc(Oc2nc(Nc3ccc(N4CCN(C)CC4)cc3OC)ncc2Cl)c1; target = Probable G-protein coupled receptor 34; assay = antagonist, Tango; conditions = added: LysoPS 5 µM; IC50 = > 10 µM
SMILES = Cc1ccc(NC(=O)c2ccc(C)c(C(F)(F)F)c2)cc1C#Cc1nn(C2CCC(O)CC2)c2ncnc(N)c12 (stereo not shown); target = ERBB2 (Homo sapiens, UniProt P04626); assay = inhibitor, radiometric kinase; conditions = added: ATP 10 µM; IC50 = 0.165 µM
SMILES = CN1CCN(c2ccc(Nc3ncc4cc(C#N)c(=O)n(C5CCCC5)c4n3)cc2)CC1; target = TAOK1 (Homo sapiens, UniProt Q7L7X3); IC50 = 0.0634 µM
SMILES = c1cc(N2CCNCC2COc2ccc3c(c2)OCO3)ccn1 (stereo not shown); target = P2RX4; assay = calcium flux, inhibitor, Ca2+ flux; system = human cells; IC50 = 2.69 ± 1.56 µM
SMILES = CC(C)C[C@@H](N)[C@H](O)C(=O)N[C@H](C(=O)N[C@H](C(=O)N[C@@H](CC(=O)O)C(=O)O)C(C)C)C(C)C; target = rat aminopeptidase III; assay = enzyme activity, inhibitor; IC50 = 0.05 µM
SMILES = COc1cc(C(=O)NS(=O)(=O)c2ccccc2C)ccc1Cc1cn(C)c2ccc(NC(=O)OC3CCCC3)cc12; target = LRRC8A/LRRC8C (Homo sapiens, UniProt Q8IWT6+Q8TDW0); assay = ion current, inhibitor, whole-cell patch clamp; system = HCT116 LRRC8 knockout, transfected; conditions = -100 mV, LRRC8A/LRRC8C heteromer; IC50 = 15.2 µM
SMILES = COc1ccc(S(=O)(=O)N2CCNCC2COc2ccc3ccccc3c2)cc1 (stereo not shown); target = P2RX4; assay = calcium flux, inhibitor, Ca2+ flux; system = human cells; IC50 = 4.79 ± 0.19 µM
SMILES = CC(C)C[C@H](NC(=O)[C@H](Cc1ccccc1)N=[N+]=[N-])C(=O)N[C@@H](CC(C)(C)F)C(=O)N[C@H](/C=C/S(C)(=O)=O)Cc1ccc(CN)cc1; target = Proteasome subunit beta type-9; assay = competitive ABPP; system = Raji cell lysate; IC50 = > 10 µM
SMILES = CCn1c(-c2nc3cc(C(=O)N4CCC[C@@H](N)C4)cc(OC)c3n2C)cc2cccnc21; target = PADI4 (Homo sapiens, UniProt Q9UM07); assay = binding, chemoproteomic bead capture dot-blot; system = NB-4 cell lysate; IC50 = 0.047 µM
SMILES = CC(C)C[C@H](NC(=O)[C@H](CCc1ccccc1)NC(=O)CN1CCOCC1)C(=O)N[C@@H](Cc1ccccc1)C(=O)N[C@@H](CC(C)C)C(=O)[C@@]1(C)CO1; target = Psmb7/Psmb3, β2 subunit (Mus musculus, UniProt P70195+Q9R1P1); assay = proteasome subunit activity; system = Ba/F3 BCR-ABL1 M351T; conditions = 1 h pulse; IC50 = 0.136 ± 0.0251 µM
SMILES = CNc1cc[n+](CCNC(=O)c2ccn3c(-c4c(C)noc4C)cnc3c2)cc1; target = Alpha-2B adrenergic receptor (Canis lupus familiaris, UniProt A0A8I3NDU8); assay = enzyme activity, inhibitor, cell-based; system = dog; IC50 = 0.025 µM
